# Published values collected from several papers.
# Compare with care: the assays were run in different laboratories. Several values in a cell are separate wells, animals, samples, runs or records. ± gives the spread as reported.
Molecule,target or system,test,test system,conditions,scale,measurement,result
SFLLRNPNDKYEPF,BPAEC,fura-2,peptide,10 µM,baseline: basal,cytosolic Ca2+ increase,7 fold
LHKLLHHLLHHLHKLLHHLHHLLHKLC,human red blood cells,hemolysis,peptide,"1 h, pH 7.4",baseline: Triton X-100,EC50,> 100000 nM
KISEYRHYV,HPV16 E6-specific T-cell line,ELISA,"peptide, supernatant","concentration not given, 24 h, together with: peptide-pulsed autologous B cells",,IFN-γ release,172 pg/mL
abamectin,HepG2,"RNA-seq, refers to: genes, LRH-1 target, endogenous",,"10 µM, 24 h, log2 fold change cut-off ±1.0",,number of regulated genes,1600 genes
CEMDGQCKRDLKCCMGMCGKSCVSPVKA,RAW264.7,Western blot,peptide,"concentration not given, 6 h pretreatment, together with: LPS 30 min",,p-p38/p38 ratio,0.31 ± 0.06
KLPQLCTEV,HPV16 E6-specific T-cell line,ELISA,"peptide, supernatant","concentration not given, 24 h, together with: peptide-pulsed autologous B cells",,IFN-γ release,699 pg/mL
LPLKMLNIPSINVH,stimulated healthy donor PBMCs,"single-epitope tetramer staining, refers to: DRB1*01:01 tetramer",peptide,concentration not given,baseline: CD4 T cells,antigen-specific CD4 T cells,0.54%
Apelin,HUVEC expressing APJ,Transwell,,200 ng/mL,baseline: control,cell migration,1.5 fold
C.I. Basic Violet 14,HepaRG,"reactive oxygen species, ROS-Glo luminescence",,16 h,,IC50,4960 ± 3240 nM
DFIPPYVDFPPRLPIFR,DLD-1,"immunoblot, refers to: beta-catenin","peptide, cytosolic fraction",,baseline: non-transfected cells,degradation,> 50%
DAMGO,naive rat DRG neurons,"PKA-RII phosphorylation, high-content microscopy",,together with: forskolin 3 µM,,IC50,50 ± 10 nM
YMLDLQPET,HPV16 E7-specific T-cell line,ELISA,"peptide, supernatant","concentration not given, 24 h, together with: peptide-pulsed autologous B cells",,IFN-γ release,247 pg/mL
ciclosporin,"Jurkat, activated","IL-2 secretion, immunosuppressant",,,,IC50,0.065 nM
CLDPVDTPNPTR,RAW264.7,Western blot,peptide,"concentration not given, 6 h pretreatment, together with: LPS 30 min",,p-ERK/ERK ratio,0.34 ± 0.01
BzATP,N2a,"fluorescence signal increase, stimulant, fluorescence plate reader",,300 µM,,time to maximum ΔF/F0,11 min
pladienolide B,22Rv1,ATAC-seq,,"concentration not given, 3 h, log2FC below -1 or above 1",,changed accessible sites,< 200 sites
KISEYRHYC,HN-30 (HLA-A2− HPV+),111In release,peptide,"concentration not given, 16 h, E:T 25:1 IVS 5, together with: peptide-generated T-cell line",,specific lysis,3.3%
SATSFPPSYESVARG,human DRG neurons,,"peptide, human","10 µM, 24 h",baseline: scrambled peptide,NaV1.8 immunoreactivity,decreased
KLPQLCTEL,HPV16 E6-specific T-cell line,ELISA,"peptide, supernatant","concentration not given, 24 h, together with: peptide-pulsed autologous B cells",,IFN-γ release,264 pg/mL
cucurbitacin B,"uveal melanoma lines MP41, MP38, MP46",cell viability,,average over lines,,IC50,37.9 nM
insulin human,,refers to: ADCY8 mRNA,"uninfected mouse, brain","i.p., dose not given",baseline: PBS,fold change,1.12
lead,U87 glioblastoma,CCK-8,,"10 µM, 24 h, unit not given",baseline: untreated control,viability,0.53
RTLEDLLMGT,HPV16 E7-specific T-cell line,ELISA,"peptide, supernatant","concentration not given, 24 h, together with: peptide-pulsed autologous B cells",,IFN-γ release,338 pg/mL
Tunicamycin,HEK293,western blot,,"10 µg/mL, 6 h, unit not given",baseline: mock,BiP protein level,1.81 and 1.95 and 1.47 and 1.49 and 1.5 and 2.35

# Excerpt of the above:
Molecule,target or system,test,test system,conditions,scale,measurement,result
pladienolide B,22Rv1,ATAC-seq,,"concentration not given, 3 h, log2FC below -1 or above 1",,changed accessible sites,< 200 sites
KISEYRHYC,HN-30 (HLA-A2− HPV+),111In release,peptide,"concentration not given, 16 h, E:T 25:1 IVS 5, together with: peptide-generated T-cell line",,specific lysis,3.3%
